Published values from different studies.
Compare with care: the assays were run in different laboratories. Several values in a cell are separate wells, animals, samples, runs or records. ± marks the error that the study gave.
PTGS2: Prostaglandin G/H synthase 2 (PTGS2, Homo sapiens, UniProt P35354)
Coelenterazine h 2-monooxygenase: Coelenterazine h 2-monooxygenase (Renilla reniformis, UniProt P27652)
CCKBR: Gastrin/cholecystokinin type B receptor (CCKBR, Homo sapiens, UniProt P32239)
USP5: Ubiquitin carboxyl-terminal hydrolase 5 (USP5, Homo sapiens, UniProt P45974)
Protein-S-isoprenylcysteine O-methyltransferase: Protein-S-isoprenylcysteine O-methyltransferase (Homo sapiens, UniProt O60725)
PRKACG: cAMP-dependent protein kinase catalytic subunit gamma (PRKACG, Homo sapiens, UniProt P22612)

Structure (SMILES) = Cc1ccc(-c2nn(-c3ccc(S(C)(=O)=O)cc3)cc2C=NN=c2[nH]c(-c3ccc([N+](=O)[O-])cc3)cs2)cc1; target or system = PTGS2; assay = enzyme activity; setting = 1 µM; quantity = inhibition; value = 46.3%
Structure (SMILES) = C/C=C/C(=O)Nc1ccc2nc(NCCCCCN(C)C)nc(NCCCCCCN(C)C)c2c1; target or system = DNA (cytosine-5)-methyltransferase 3A, with DNMT3L (DNMT3A, Homo sapiens, UniProt Q9Y6K1); assay = enzyme activity; setting = 10 µM; quantity = inhibition; value = -80%
Structure (SMILES) = CC(C)Oc1ccc(CNCCC2(C(C)C)CCOC(C)(C)C2)cc1 (centres unmarked); target or system = Coelenterazine h 2-monooxygenase; assay = luciferase activity, inhibitor, luminescence counter-screen; setting = concentration not given, test 1; quantity = inhibition; value = 66.4% and 66.3%
Structure (SMILES) = CN(C)C/C=C/C(=O)Nc1ccc2nc(NCCCCCN(C)C)nc(NCCCCCCN(C)C)c2c1; target or system = PRMT3 (Homo sapiens, UniProt O60678); assay = enzyme activity, inhibitor, radiometric; setting = 10 µM; quantity = inhibition; value = 79%
Structure (SMILES) = CC(C)CC(=O)Nc1ccc(C2CCCCC2)cc1; assay = hepatocyte stability; test system = cryopreserved human hepatocytes; setting = 1 µM; quantity = hepatic clearance; value = 15 mL/min/kg
Structure (SMILES) = COc1ccc(S(=O)(=O)N2CCc3ccccc3C2)cc1N1CCN(C(=O)c2ccc(F)cc2C(F)(F)F)CC1; target or system = PPP2CA (Homo sapiens, UniProt P67775); assay = enzyme activity, inhibitor; setting = 1 µM; quantity = inhibition; value = -10.4%
Structure (SMILES) = O=C1c2sc(-c3ccc(N4CCC(CO)CC4)nc3F)nc2CCN1c1cccnc1; target or system = CCKBR; assay = ligand displacement, radioligand; setting = 1 µM; quantity = inhibition; value = 12%
Structure (SMILES) = CC(=O)Nc1ccc2nc(C)sc2c1; target or system = USP5; assay = enzyme activity, inhibitor; setting = 17 µM; quantity = inhibition; value = 52%
Structure (SMILES) = CS(=O)(=O)c1ccc(-n2cc(C=NN=c3[nH]c(-c4ccc([N+](=O)[O-])cc4)cs3)c(-c3ccc([N+](=O)[O-])cc3)n2)cc1; target or system = PTGS2; assay = enzyme activity; setting = 100 µM; quantity = inhibition; value = 91.4%
Structure (SMILES) = O=C(NN=C1c2ccccc2-c2nc3nonc3nc21)c1ccccc1O; target or system = USP5; assay = enzyme activity, inhibitor; setting = 17 µM; quantity = inhibition; value = 59%
Structure (SMILES) = COc1ccccc1Nc1nc(NCC2CCCO2)c2ccccc2n1 (centres unmarked); target or system = Coelenterazine h 2-monooxygenase; assay = luciferase activity, inhibitor, luminescence counter-screen; setting = concentration not given, test 2; quantity = inhibition; value = 97% and 106%
Structure (SMILES) = O=C1c2sc(-c3ccc(N4CCC(F)C4)nc3F)nc2CCN1c1cccnc1 (centres unmarked); target or system = CYSLTR1 (Homo sapiens, UniProt Q9Y271); assay = ligand displacement, radioligand; setting = 1 µM; quantity = inhibition; value = 2%
Structure (SMILES) = CCCCCCCCN(CCC(=O)Nc1ccccc1)C(=O)c1ccc(C#N)cc1; target or system = Protein-S-isoprenylcysteine O-methyltransferase; assay = enzyme activity; test system = Sf9 membranes; setting = 50 µM, together with: [3H]S-adenosylmethionine, biotin-farnesyl-L-cysteine; quantity = inhibition; value = 66%
Structure (SMILES) = CS(=O)(=O)c1ccc(-n2cc(C=NN=c3[nH]c(-c4ccc(Br)cc4)cs3)c(-c3ccc([N+](=O)[O-])cc3)n2)cc1 (mixture of isomers); target or system = PTGS2; assay = enzyme activity; setting = 10 µM; quantity = inhibition; value = 68%
Structure (SMILES) = CC(=O)[C@]12NC(C)(C)C[C@@]1(C)C(=O)C1=C2c2c(c3c4n2C(C)(C)CC2=C4[C@@]4(CC(C)(C)N[C@@](C)(C4)C2=O)CC3(C)C)C(=O)C(C)(C)N1 (racemic); target or system = KCNQ2 (Homo sapiens, UniProt O43526); assay = ion current, inhibitor, patch clamp; test system = HEK-293T; setting = 40 µM; quantity = inhibition; value = 7%
Structure (SMILES) = CC(=O)N1C(=O)C(=C2SC(=S)N(C(C)C(=O)O)C2=O)c2ccccc21 (centres unmarked); target or system = USP5; assay = enzyme activity, inhibitor; setting = 17 µM; quantity = inhibition; value = 7%
Structure (SMILES) = CS(=O)(=O)Nc1cccc(-c2csc3cnc(Nc4ccc(N5CCN(CCCCCOc6cccc7c6C(=O)N(C6CCC(=O)NC6=O)C7=O)CC5)cc4)nc23)c1 (centres unmarked); target or system = NEK8 (Homo sapiens, UniProt Q86SG6); assay = probe labelling, inhibitor, KiNativ chemoproteomics; test system = MOLT-4; setting = 1 µM; quantity = inhibition; value = 22.3%
Structure (SMILES) = CO[C@@H]1OC[C@@H](O)[C@H](O)[C@H]1O; target or system = PTGS2; assay = enzyme activity, inhibitor; setting = 1.95 µg/mL; quantity = inhibition; value = 29.2%
Structure (SMILES) = CC(=O)c1ccc(NC(=O)CN2CCC(c3nc(-c4cccc(F)c4)no3)CC2)cc1; target or system = DRD3 (Homo sapiens, UniProt P35462); assay = enzyme activity, inhibitor; setting = 10 µM; quantity = inhibition; value = 16.7%
Structure (SMILES) = O=C1c2ccccc2C(=O)c2c1oc1c3c(ccc21)OCN(CC1CCCO1)C3 (centres unmarked); target or system = USP5; assay = enzyme activity, inhibitor; setting = 17 µM; quantity = inhibition; value = 52%
Structure (SMILES) = Cl.Cl.N[C@@H](C(=O)N1CCCC1)C1CCN(c2nccc3c(-c4ncc(Cl)cc4Cl)cccc23)CC1; target or system = PADI4 (Homo sapiens, UniProt Q9UM07); assay = enzyme activity, inhibitor; setting = 1.22 nM, together with: Ca2+ 0.4 mM; quantity = inhibition; value = 5.75% and 1.5% and 3.73%
Structure (SMILES) = CCCCCCCCN(CCC(=O)Nc1ccccc1)C(=O)c1ccccc1OC; target or system = Protein-S-isoprenylcysteine O-methyltransferase; assay = enzyme activity; test system = Sf9 membranes; setting = 50 µM, together with: [3H]S-adenosylmethionine, biotin-farnesyl-L-cysteine; quantity = inhibition; value = 32%
Structure (SMILES) = CC(C)Cc1ccc(-c2nn(-c3ccc(S(C)(=O)=O)cc3)cc2C=NN=c2[nH]c(-c3ccc(Br)cc3)cs2)cc1; target or system = PTGS2; assay = enzyme activity; setting = 0.01 µM; quantity = inhibition; value = 20.7%
Structure (SMILES) = CN1CCN(Cc2ccc(-c3ccc(CO[C@H]4CCC[C@@H]4NC(=O)c4cc(-c5cnn(C)c5)cnc4N)cc3)cc2)CC1; target or system = PRKACG; assay = enzyme activity, inhibitor; setting = 0.1 µM; quantity = inhibition; value = 8%
Structure (SMILES) = NNC1(c2nnnn2CCc2c[nH]c3ccccc23)CCN(C(=O)OCc2ccccc2)CC1; target or system = Endothiapepsin (EAPA, Cryphonectria parasitica, UniProt P11838); assay = enzyme activity, inhibitor; setting = 200 µM; quantity = inhibition; value = 89.5%
Structure (SMILES) = CC(=O)n1cc([C@H]2C=C(C(=O)N3CCN(Cc4ccc5c(c4)OCO5)CC3)O[C@@H](OCc3ccc(CO)cc3)C2)c2ccccc21; target or system = Coelenterazine h 2-monooxygenase; assay = luciferase activity, inhibitor, luminescence counter-screen; setting = concentration not given, test 2; quantity = inhibition; value = 82.3% and 92.7%
Structure (SMILES) = C[Si](C)(C)C[C@@H](CN)CC(=O)O; target or system = P2Y receptor, rat; assay = binding, radioligand binding; setting = 75 µM, together with: labelled ATP analogue; quantity = inhibition; value = 18%
Structure (SMILES) = CS(=O)(=O)c1ccc(-n2cc(C=NN=c3[nH]c(-c4ccc([N+](=O)[O-])cc4)cs3)c(-c3ccc(Br)cc3)n2)cc1; target or system = PTGS2; assay = enzyme activity; setting = 0.1 µM; quantity = inhibition; value = 26.5%
Structure (SMILES) = C[Si]1(C[C@H](CN)CC(=O)O)CCCC1; target or system = CCKBR; assay = cell-free assay, inhibitor; setting = 70 µM; quantity = inhibition; value = 8%
Structure (SMILES) = CC=C(C)C(=O)OC1CC2C(C=C(C)C3C(OC(C)=O)CC(=O)C13C)OC(=O)C2C (centres unmarked); target or system = PTGS2; assay = enzyme activity, inhibitor; setting = 0.12 µg/mL; quantity = inhibition; value = 0%
Structure (SMILES) = CS(=O)(=O)c1ccc(-n2cc(C=NN=c3[nH]c(-c4ccc(Br)cc4)cs3)c(-c3ccc(Br)cc3)n2)cc1; target or system = PTGS2; assay = enzyme activity; setting = 10 µM; quantity = inhibition; value = 77.2%
Structure (SMILES) = CCn1cc(C(=O)O)c(=O)c2c(N)c(F)c(NC3CCCCC3)cc21; target or system = PINK1 (Homo sapiens, UniProt Q9BXM7); assay = kinase activity; setting = 0.1 µM, together with: ATP at Km; quantity = inhibition; value = -8.8%
Structure (SMILES) = Cc1ccc(-c2nn(-c3ccc(S(C)(=O)=O)cc3)cc2C=NN=c2[nH]c(-c3ccc(Br)cc3)cs2)cc1 (mixture of isomers); target or system = PTGS2; assay = enzyme activity; setting = 0.01 µM; quantity = inhibition; value = 15.7%
Structure (SMILES) = O=C(NN=c1c(=O)c2ccccc2c1=O)c1ccncc1; target or system = USP5; assay = enzyme activity, inhibitor; setting = 17 µM; quantity = inhibition; value = 85%
Structure (SMILES) = CNC(=O)c1ccc([C@H]2[C@@H](F)[C@@H](F)C[C@@H](F)[C@H]2F)cc1; assay = hepatocyte stability; test system = cryopreserved human hepatocytes; setting = 1 µM; quantity = hepatic clearance; value = 6.2 mL/min/kg
Structure (SMILES) = Br.CCCCCCCCCn1c2c(c(=N)c3c1CCC3)CCCC2; target or system = Coelenterazine h 2-monooxygenase; assay = luciferase activity, inhibitor, luminescence counter-screen; setting = concentration not given, test 1; quantity = inhibition; value = 66.8% and 54.3%
Structure (SMILES) = COc1ccc(CSc2ncccn2)cc1OS(=O)(=O)c1ccc([N+](=O)[O-])cc1; target or system = Apelin receptor (APLNR, Homo sapiens, UniProt P35414); assay = β-arrestin recruitment, antagonist, PRESTO-Tango; setting = concentration not given; quantity = inhibition; value = 90.1 ± 1.2%
Structure (SMILES) = COc1ncc2nc(C)n(Cc3ncc(S(N)(=O)=O)cc3F)c2c1-c1ccccc1; target or system = Androgen receptor (AR, Homo sapiens, UniProt P10275); assay = antagonist, cell-based; setting = 10 µM; quantity = inhibition; value = 1.17%
Structure (SMILES) = C=CC(=O)N1Cc2nc(-c3cc(-c4cc(Cl)cnc4Cl)c(F)cc3F)n(-c3ccncn3)c2C1; target or system = PRKACG; assay = cell-free assay; setting = 1 µM; quantity = inhibition; value = -6.8%
Structure (SMILES) = N#CC(=Cc1cccs1)C(N)=C(C#N)C#N; target or system = USP5; assay = enzyme activity, inhibitor; setting = 17 µM; quantity = inhibition; value = 6%
Structure (SMILES) = N#Cc1ccc(-c2cnc(C(=O)CCCCCCc3ccccc3)o2)nc1; target or system = recombinant FAAH (rat); assay = enzyme activity; setting = 80 nM, 3 h, 22 °C, before dialysis; quantity = inhibition; value = ~80%
Structure (SMILES) = COc1cccc(-c2cc(F)c(NC(=O)Nc3sc(C)nc3C(=O)O)c(F)c2)c1; target or system = DHODH (Homo sapiens, UniProt Q02127); assay = enzyme activity, DCIP colorimetric; setting = 1.00 µM; quantity = inhibition; value = 76.7% and 77.1% and 76.3%
Structure (SMILES) = CN1CC[C@@H](COc2cnc(C#N)cc2-c2ccn3nc(NC(=O)C4CC4)cc3c2)C1; target or system = CDKL4 (Homo sapiens, UniProt Q5MAI5); assay = enzyme activity, inhibitor; setting = 1 µM; quantity = inhibition; value = -4%
Structure (SMILES) = CCCCCCCCN(CCC(=O)Nc1ccccc1)C(=O)c1cccn1C; target or system = Protein-S-isoprenylcysteine O-methyltransferase; assay = enzyme activity; test system = Sf9 membranes; setting = 50 µM, together with: [3H]S-adenosylmethionine, biotin-farnesyl-L-cysteine; quantity = inhibition; value = 75%
Structure (SMILES) = CCC(=O)/C=C\c1nnc2cc3c(cc2c1-c1ccc(CC)o1)OCCO3; target or system = USP5; assay = enzyme activity, inhibitor; setting = 17 µM; quantity = inhibition; value = 74%
Structure (SMILES) = C/C=C(/C)C(=O)O[C@@H]1C=C(C)CC[C@]2(O)[C@@H](C(C)C)CC(=O)[C@]12C; target or system = PTGS2; assay = enzyme activity, inhibitor; setting = 15.63 µg/mL; quantity = inhibition; value = 0%
Structure (SMILES) = CC1(C)C=C2C(=NN(c3ccccc3)C(N)=C2C#N)CO1; target or system = USP5; assay = enzyme activity, inhibitor; setting = 17 µM; quantity = inhibition; value = 6%
Structure (SMILES) = Cc1ccc2c(c1)sc(-c1ccc(N(C)C)cc1)[n+]2C.[I-]; target or system = Coelenterazine h 2-monooxygenase; assay = luciferase activity, inhibitor, luminescence counter-screen; setting = concentration not given, test 1; quantity = inhibition; value = 74.5% and 67.2%
Structure (SMILES) = CCCCCCCCN(CCC(=O)Nc1ccccc1)C(=O)c1cccc(OC)c1; target or system = Protein-S-isoprenylcysteine O-methyltransferase; assay = enzyme activity; test system = Sf9 membranes; setting = 50 µM, together with: [3H]S-adenosylmethionine, biotin-farnesyl-L-cysteine; quantity = inhibition; value = 26%
Structure (SMILES) = CC(C)Cn1c(SCC(=O)N2CCc3ccccc3C2)nc2cc(Cl)ccc2c1=O; target or system = HRH1 (Homo sapiens, UniProt P35367); assay = ligand displacement, radioligand; setting = 10 µM; quantity = inhibition; value = -2%
